Measured values gathered from unrelated publications.
Every numbered part comes from another study and shows a few of its results, in no order.
Chain of UniProt O75747 (whole entry, looked up): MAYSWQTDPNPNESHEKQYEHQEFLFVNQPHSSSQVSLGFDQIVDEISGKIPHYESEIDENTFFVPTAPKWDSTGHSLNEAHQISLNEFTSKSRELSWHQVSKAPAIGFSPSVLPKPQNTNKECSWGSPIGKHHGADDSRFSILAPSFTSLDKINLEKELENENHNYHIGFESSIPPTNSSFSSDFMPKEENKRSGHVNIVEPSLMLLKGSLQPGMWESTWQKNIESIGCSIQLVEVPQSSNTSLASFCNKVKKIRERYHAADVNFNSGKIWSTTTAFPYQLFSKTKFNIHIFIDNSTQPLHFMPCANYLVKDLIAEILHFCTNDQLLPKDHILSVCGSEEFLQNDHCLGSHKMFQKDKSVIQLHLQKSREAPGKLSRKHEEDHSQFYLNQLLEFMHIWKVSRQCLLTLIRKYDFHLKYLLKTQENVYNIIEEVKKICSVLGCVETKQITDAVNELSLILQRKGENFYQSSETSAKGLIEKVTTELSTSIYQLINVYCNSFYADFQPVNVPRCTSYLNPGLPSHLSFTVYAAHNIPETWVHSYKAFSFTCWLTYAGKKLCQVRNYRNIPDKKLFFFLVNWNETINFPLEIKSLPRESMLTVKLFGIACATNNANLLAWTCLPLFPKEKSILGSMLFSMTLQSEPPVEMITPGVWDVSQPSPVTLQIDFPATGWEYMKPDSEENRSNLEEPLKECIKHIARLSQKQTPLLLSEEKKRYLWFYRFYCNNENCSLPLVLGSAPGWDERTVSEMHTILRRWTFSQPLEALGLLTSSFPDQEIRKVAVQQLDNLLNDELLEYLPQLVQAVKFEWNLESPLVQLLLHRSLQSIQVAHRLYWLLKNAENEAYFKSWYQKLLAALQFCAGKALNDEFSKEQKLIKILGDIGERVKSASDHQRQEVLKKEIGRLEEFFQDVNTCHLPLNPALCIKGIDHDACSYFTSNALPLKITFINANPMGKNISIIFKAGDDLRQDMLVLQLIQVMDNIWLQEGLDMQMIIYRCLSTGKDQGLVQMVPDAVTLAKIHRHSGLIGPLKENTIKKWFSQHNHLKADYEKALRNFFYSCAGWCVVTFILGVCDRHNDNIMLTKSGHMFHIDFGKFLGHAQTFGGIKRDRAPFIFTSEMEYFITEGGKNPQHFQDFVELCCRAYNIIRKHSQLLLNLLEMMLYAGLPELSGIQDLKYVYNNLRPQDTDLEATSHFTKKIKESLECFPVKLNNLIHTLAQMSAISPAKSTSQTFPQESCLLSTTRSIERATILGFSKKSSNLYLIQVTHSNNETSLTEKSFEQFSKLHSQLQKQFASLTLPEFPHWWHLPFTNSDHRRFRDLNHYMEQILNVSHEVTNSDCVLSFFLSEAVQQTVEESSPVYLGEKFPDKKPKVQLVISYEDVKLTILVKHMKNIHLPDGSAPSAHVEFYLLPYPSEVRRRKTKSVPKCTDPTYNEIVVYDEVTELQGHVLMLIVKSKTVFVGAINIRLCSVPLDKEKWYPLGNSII
Chain of UniProt P42336 (whole entry, unmodified, looked up): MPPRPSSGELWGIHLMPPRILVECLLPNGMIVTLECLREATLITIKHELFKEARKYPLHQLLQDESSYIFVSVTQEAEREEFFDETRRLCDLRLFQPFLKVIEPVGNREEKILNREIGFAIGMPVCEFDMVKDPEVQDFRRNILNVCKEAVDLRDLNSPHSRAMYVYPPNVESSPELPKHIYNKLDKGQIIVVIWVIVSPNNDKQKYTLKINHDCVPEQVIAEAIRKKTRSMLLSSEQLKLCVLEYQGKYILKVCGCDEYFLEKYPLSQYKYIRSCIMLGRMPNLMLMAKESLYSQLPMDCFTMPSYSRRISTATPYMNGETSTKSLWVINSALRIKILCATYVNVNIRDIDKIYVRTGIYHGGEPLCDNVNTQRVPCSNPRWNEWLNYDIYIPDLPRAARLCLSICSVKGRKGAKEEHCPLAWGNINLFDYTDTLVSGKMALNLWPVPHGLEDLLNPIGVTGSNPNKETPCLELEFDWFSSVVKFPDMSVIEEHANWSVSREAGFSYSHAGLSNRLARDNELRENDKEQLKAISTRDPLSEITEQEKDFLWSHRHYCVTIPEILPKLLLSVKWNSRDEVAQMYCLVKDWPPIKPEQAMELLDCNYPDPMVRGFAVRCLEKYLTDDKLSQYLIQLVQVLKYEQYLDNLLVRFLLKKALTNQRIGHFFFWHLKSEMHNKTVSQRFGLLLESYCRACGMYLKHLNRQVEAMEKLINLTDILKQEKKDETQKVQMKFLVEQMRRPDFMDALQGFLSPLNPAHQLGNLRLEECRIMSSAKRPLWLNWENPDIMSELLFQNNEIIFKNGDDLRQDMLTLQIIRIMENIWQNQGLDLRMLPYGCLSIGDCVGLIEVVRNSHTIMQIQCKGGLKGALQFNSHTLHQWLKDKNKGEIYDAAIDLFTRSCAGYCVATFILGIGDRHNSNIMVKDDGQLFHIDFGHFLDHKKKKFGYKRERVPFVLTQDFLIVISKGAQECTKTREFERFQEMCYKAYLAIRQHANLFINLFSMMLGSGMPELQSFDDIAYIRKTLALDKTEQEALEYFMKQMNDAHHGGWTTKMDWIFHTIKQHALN
Chain of UniProt P06493 (whole entry, looked up): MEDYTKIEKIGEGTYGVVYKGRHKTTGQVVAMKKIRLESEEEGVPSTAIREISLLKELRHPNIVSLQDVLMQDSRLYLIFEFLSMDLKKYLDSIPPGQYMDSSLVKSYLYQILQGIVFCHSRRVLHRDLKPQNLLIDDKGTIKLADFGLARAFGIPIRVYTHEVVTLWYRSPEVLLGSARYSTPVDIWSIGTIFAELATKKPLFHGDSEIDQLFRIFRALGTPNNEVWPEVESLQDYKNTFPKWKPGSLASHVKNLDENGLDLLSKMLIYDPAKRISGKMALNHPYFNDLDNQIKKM
Chain of UniProt Q02750 (whole entry, looked up): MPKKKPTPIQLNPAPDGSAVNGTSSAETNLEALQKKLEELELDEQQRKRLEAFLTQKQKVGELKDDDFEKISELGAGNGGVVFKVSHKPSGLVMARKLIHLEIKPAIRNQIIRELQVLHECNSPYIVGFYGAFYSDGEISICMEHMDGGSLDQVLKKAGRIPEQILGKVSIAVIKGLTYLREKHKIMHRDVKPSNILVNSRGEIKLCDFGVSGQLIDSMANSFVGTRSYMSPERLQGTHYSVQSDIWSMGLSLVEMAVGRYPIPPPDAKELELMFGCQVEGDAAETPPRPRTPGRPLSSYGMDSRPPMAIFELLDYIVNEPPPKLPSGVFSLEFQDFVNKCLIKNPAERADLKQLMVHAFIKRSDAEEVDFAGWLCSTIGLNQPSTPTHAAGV
Chain of UniProt Q7KZI7 (whole entry, looked up): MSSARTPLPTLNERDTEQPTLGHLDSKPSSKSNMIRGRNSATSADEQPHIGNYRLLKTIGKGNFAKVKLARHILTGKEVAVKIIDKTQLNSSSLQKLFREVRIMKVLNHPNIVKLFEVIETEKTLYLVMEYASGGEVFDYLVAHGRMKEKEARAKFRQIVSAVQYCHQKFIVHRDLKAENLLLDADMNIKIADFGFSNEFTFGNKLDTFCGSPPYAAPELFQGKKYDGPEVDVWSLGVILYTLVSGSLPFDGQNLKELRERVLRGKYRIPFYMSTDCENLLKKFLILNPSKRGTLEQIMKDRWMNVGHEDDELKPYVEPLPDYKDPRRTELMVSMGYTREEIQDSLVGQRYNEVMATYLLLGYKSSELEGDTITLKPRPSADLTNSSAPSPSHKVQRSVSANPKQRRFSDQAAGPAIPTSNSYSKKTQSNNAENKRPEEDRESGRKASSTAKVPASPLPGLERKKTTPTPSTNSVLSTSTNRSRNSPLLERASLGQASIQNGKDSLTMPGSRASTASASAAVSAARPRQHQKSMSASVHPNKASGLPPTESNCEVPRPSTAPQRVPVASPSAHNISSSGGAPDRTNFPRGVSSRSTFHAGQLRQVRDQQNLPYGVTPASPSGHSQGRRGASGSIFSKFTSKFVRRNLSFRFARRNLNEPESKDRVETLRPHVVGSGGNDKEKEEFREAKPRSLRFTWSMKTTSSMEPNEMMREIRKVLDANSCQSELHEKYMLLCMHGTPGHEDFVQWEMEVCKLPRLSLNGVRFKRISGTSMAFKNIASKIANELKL
Chain of UniProt P51956 (whole entry, looked up): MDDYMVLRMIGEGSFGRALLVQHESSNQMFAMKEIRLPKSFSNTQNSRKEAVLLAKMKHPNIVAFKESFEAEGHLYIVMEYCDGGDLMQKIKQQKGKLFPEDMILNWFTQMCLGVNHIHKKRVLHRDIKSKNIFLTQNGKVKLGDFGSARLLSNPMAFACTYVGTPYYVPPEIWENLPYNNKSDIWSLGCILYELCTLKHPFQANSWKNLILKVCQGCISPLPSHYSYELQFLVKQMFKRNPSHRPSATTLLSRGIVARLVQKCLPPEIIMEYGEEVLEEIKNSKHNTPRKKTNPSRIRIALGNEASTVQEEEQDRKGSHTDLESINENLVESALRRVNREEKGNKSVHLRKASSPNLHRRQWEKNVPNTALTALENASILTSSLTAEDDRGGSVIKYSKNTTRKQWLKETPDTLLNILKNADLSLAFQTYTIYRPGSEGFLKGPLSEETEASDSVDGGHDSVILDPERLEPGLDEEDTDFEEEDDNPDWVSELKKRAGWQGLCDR

Series 1
SMILES: CC(=O)Nc1c(C(C)=O)c(=O)n(C)c2nc(-c3ccc(Cl)cc3Cl)c(-c3ccc(Cl)cc3)cc12
Tested at: 1 µM
TESK1 (Homo sapiens, UniProt Q15569); cell-free assay, competition with immobilised ligand — remaining binding: 100%.
For CSNK1G3 (Homo sapiens, UniProt Q9Y6M4); cell-free assay, competition with immobilised ligand: remaining binding read 100%.
It gave 100% for remaining binding (TLK2 (Homo sapiens, UniProt Q86UE8); cell-free assay, competition with immobilised ligand).
The remaining binding was 100% (PIK3CA (Homo sapiens, UniProt P42336, M1043I); cell-free assay, competition with immobilised ligand).
Ribosomal protein S6 kinase alpha-6, N-terminal kinase domain (RPS6KA6, Homo sapiens, UniProt Q9UK32); cell-free assay, competition with immobilised ligand — remaining binding: 88%.
It gave 78% for remaining binding (GRK1 (Homo sapiens, UniProt Q15835); cell-free assay, competition with immobilised ligand).
The remaining binding was 100% (CDC42BPG (Homo sapiens, UniProt Q6DT37); competition binding).
The remaining binding was 100% (MAK (Homo sapiens, UniProt P20794); cell-free assay, competition with immobilised ligand).
It gave 63% for remaining binding (PIK3C2G (Homo sapiens, UniProt O75747); cell-free assay, competition with immobilised ligand).
The remaining binding was 100% (WNK1 (Homo sapiens, UniProt Q9H4A3); cell-free assay, competition with immobilised ligand).
It gave 71% for remaining binding (MAPK8 (Homo sapiens, UniProt P45983); cell-free assay, competition with immobilised ligand).

Series 2
SMILES: COc1ccc2c(c1)c(C1=C(c3c[nH]c4ccccc34)C(=O)NC1=O)cn2CCCN(C)C
Read-out: enzyme activity
Mode: inhibitor
Tested at: 0.5 µM
Relative to: control
For NEK3 (Homo sapiens, UniProt P51956): remaining activity read 98.3%.
For MAPK11 (Homo sapiens, UniProt Q15759): remaining activity read 96.7%.
The remaining activity was 91.8% (MARK2 (Homo sapiens, UniProt Q7KZI7)).
The remaining activity was 82.8% (TXK (Homo sapiens, UniProt P42681)).
PRKG2 (Homo sapiens, UniProt Q13237) — remaining activity: 60.7%.
MAP2K1 (Homo sapiens, UniProt Q02750) — remaining activity: 85%.
The remaining activity was 101% (DDR2 (Homo sapiens, UniProt Q16832)).
The remaining activity was 85.6% (MET (Homo sapiens, UniProt P08581)).
The remaining activity was 92.8% (GRK4 (Homo sapiens, UniProt P32298)).
KDR (Homo sapiens, UniProt P35968) — remaining activity: 40.7%.
It gave 95.7% for remaining activity (Cyclin-dependent kinase 1, with cyclin A (CDK1, Homo sapiens, UniProt P06493)).
It gave 54.6% for remaining activity (Cyclin-dependent kinase 9, with cyclin K (CDK9, Homo sapiens, UniProt P50750)).
For DCLK2 (Homo sapiens, UniProt Q8N568): remaining activity read 84.8%.

Series 3
SMILES: CC(C)n1cnc(-c2ccc(F)cc2)c1-c1ncc(C(=O)Nc2ccc(N3CCN(C)CC3)cc2)[nH]1
Technique: phase 2a clinical trial
Host: patients with idiopathic pulmonary fibrosis
It gave 0% for “patients with treatment-emergent adverse events” (measured: idiopathic pulmonary fibrosis; 30 mg once daily, Grade 4).
For measured: idiopathic pulmonary fibrosis; dose not given, Grade 1, all drug arms: “patients with treatment-emergent adverse events” read 0%.
measured: C-reactive protein increased; 60 mg once daily, Grade 4 — “patients with treatment-emergent adverse events”: 0%.
The “patients with treatment-emergent adverse events” was 0% (measured: electrocardiogram high voltage; 60 mg once daily, Grade 4).
The “patients with treatment-emergent adverse events” was 0% (measured: lumbar vertebral fracture; dose not given, Grade 5, maximum intensity, all drug arms total).
The “patients with treatment-emergent adverse events” was 0% (measured: first degree atrioventricular block; dose not given, Grade 2, all drug arms).
measured: interstitial lung disease; 60 mg once daily, Grade 4 — “patients with treatment-emergent adverse events”: 0%.
The “patients with treatment-emergent adverse events” was 0% (measured: electrocardiogram QT prolonged; 30 mg once daily, Grade 5).
For measured: left bundle branch block; dose not given, Grade 5, all drug arms: “patients with treatment-emergent adverse events” read 0%.
measured: drug-induced liver injury; 30 mg once daily, Grade 4 — “patients with treatment-emergent adverse events”: 0%.

Series 4
Target: Beta-1 adrenergic receptor (ADRB1, Homo sapiens, UniProt P08588)
Chain of UniProt P08588 (whole entry, looked up): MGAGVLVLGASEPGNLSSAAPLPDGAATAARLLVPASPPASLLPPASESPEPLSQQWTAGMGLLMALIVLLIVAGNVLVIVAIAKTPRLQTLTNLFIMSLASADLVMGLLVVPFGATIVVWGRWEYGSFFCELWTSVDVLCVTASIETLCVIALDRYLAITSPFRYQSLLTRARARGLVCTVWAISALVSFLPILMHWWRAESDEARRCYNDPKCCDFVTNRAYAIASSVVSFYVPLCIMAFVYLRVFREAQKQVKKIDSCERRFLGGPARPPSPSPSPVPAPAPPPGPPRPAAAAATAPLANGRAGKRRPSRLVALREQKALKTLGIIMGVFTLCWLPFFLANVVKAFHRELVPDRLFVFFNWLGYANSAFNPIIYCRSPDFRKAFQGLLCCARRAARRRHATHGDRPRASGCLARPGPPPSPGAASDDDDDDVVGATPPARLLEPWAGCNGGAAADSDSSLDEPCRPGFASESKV
Mode: antagonist
For `O=C1NCCCc2[nH]c(-c3cnn(-c4cccc(F)c4)c3)nc21`, the IC50 was at least 100 µM.
`CCOc1ccc(-c2cc3c(=O)n(CC(O)c4ccc(C(C)C)cc4)ccn3n2)cc1` (stereo not drawn) gave an IC50 of at least 100 µM.
`Cc1ncc(-c2ccc(F)c3cccnc23)nc1C` gave an IC50 of at least 100 µM.
The IC50 of `CC(CCc1ccc(O)cc1)NCCc1ccc(O)c(O)c1` (stereo not drawn) is reported as at least 100 µM.
`CC(C)(C)NCC(O)COc1ccccc1OCC1CCCO1` (stereo not drawn) gave an IC50 of at least 100 µM.
The IC50 of `COc1ccccc1N1CCN(CCN2C(=O)NC(C)(C)C2=O)CC1` is reported as at least 100 µM.
The IC50 of `Fc1ccc(-c2nnc3ccc(Nc4ccc(N5CCOCC5)cc4)nn23)nc1` is reported as at least 100 µM.
`COc1ccccc1N1CCN(C(=O)C(C)CN)CC1` (stereo not drawn) gave an IC50 of at least 100 µM.

For quick reference, copied from above (series 1):
It gave 78% for remaining binding (GRK1 (Homo sapiens, UniProt Q15835); cell-free assay, competition with immobilised ligand).
Ribosomal protein S6 kinase alpha-6, N-terminal kinase domain (RPS6KA6, Homo sapiens, UniProt Q9UK32); cell-free assay, competition with immobilised ligand — remaining binding: 88%.
The remaining binding was 100% (MAK (Homo sapiens, UniProt P20794); cell-free assay, competition with immobilised ligand).
For CSNK1G3 (Homo sapiens, UniProt Q9Y6M4); cell-free assay, competition with immobilised ligand: remaining binding read 100%.
